# Published values gathered from unrelated publications.
# Each numbered part is a random draw from the data of one study; scales do not carry over between parts.

# Sample 1
# Target: Sal-like protein 4, full length isoform B (SALL4, Homo sapiens, UniProt Q9UJQ4-2, residues 1-616)
# Technique: universal PBM
# Molecule type: double-stranded DNA, one strand shown
# Matrix: in vitro
# Tested at: not given
# Notes: 8-mer, flanks averaged, mean of replicates
# Reading: higher = stronger binding
# Target sequence (chain): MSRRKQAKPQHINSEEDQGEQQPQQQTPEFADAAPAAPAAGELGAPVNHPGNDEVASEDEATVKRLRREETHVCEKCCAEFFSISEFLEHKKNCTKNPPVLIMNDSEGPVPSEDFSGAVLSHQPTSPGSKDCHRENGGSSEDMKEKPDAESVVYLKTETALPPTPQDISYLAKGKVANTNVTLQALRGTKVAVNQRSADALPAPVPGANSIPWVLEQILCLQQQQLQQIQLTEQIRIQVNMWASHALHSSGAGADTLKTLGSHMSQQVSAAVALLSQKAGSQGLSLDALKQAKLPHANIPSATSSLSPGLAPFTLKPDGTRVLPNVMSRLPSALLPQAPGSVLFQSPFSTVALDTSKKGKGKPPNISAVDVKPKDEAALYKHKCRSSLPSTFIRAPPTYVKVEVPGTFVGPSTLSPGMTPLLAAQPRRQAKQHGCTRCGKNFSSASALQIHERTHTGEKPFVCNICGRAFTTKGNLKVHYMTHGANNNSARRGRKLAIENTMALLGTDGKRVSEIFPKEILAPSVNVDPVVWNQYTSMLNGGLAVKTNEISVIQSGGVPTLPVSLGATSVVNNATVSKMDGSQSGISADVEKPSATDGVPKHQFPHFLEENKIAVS
Oligonucleotide,E-score
GCCTATCC,-0.158
GTTAAGAA,0.0162
GCAGTGCA,-0.0645
CGTTTTGC,-0.0674
CAACCTCA,-0.0603
AACTTTAA,0.243
ATGGAATG,-0.112
CGCCAAAA,0.0668
AAAGGCGG,0.00621
ATGAGGGG,-0.00229
AACCAGCG,-0.172
TAACGCCA,0.0876
ACCAGCGA,-0.271
CCACTCGC,-0.222
GACTCGAA,-0.156
GTTAACGA,0.0503
CAAATCCG,-0.0214
CAACCCAA,0.0477
ACGGTTGA,0.00189
GACTTTGC,-0.177
CATCTACC,-0.0213
CACCTACC,-0.0841
ATACCGGA,0.0479
CAGACTTA,0.00855
AAGGAGTG,-0.0293

# Sample 2
# Target: Ras GTPase-activating protein-binding protein 1, full length (G3BP1, Homo sapiens, UniProt Q13283)
# Chain of UniProt Q13283 (whole entry, looked up): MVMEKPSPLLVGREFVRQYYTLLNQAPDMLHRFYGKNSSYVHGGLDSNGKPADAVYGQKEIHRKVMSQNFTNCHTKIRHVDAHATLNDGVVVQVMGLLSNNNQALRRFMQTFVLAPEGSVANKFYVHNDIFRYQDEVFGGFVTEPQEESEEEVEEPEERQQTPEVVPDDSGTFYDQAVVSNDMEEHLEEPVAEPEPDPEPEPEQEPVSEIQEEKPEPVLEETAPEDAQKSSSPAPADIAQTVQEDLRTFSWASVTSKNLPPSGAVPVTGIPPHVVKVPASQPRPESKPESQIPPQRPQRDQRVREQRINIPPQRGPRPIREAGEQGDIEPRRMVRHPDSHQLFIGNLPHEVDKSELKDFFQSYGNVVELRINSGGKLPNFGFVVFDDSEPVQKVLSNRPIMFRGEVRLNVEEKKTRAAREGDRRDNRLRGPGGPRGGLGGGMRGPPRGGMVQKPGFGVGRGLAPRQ
# Technique: RNA Bind-n-Seq
# Molecule type: RNA
# Matrix: in vitro
# Tested at: 200 nM
# Notes: whole 134-nt RNA, ends assumed
# Added: 150 mM KCl
# Baseline: input library
# Reading: higher = stronger binding
Oligonucleotide,log2 enrichment
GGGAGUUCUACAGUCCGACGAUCGUCCUGUGCUACACAUCGUAUGUACCGAAUCGGAAAAAGGGAAAAAGGGGAAAAAGGGGAAAGUAUUAUGUUACGCCGUUCGGAUCUGCAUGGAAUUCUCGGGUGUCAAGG,-0.334
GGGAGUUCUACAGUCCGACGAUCCUCAAGUCCUGUGCUACACAUCGUAUGUACCGAAUCGGAAAGGAGGUUUUUGGAAAGUAUUAUGUUACGCCGUUCGGAUCUGCACUUCCAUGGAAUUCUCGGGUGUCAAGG,-0.484
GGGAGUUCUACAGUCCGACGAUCUCCUCAAGUCCUGUGCUACACAUCGUAUGUACCGAAUCGGUGGAGGUUUGGAAAGUAUUAUGUUACGCCGUUCGGAUCUGCACUUCCAGCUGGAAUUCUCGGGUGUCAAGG,-0.857
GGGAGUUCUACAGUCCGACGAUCCCUGUGCUACACAUCGUAUGUACCGAAUCGGGCCCCCCCGGGCCCCCCCGGCCCCCCCGGGAAAGUAUUAUGUUACGCCGUUCGGAUCUGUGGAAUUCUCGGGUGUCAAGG,-0.223
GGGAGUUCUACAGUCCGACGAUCAAGUCCUGUGCUACACAUCGUAUGUACCGAAUCGGUUUUUUUGGAAAAAAAGGUGGAAAGUAUUAUGUUACGCCGUUCGGAUCUGCACUUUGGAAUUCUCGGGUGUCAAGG,-1.22
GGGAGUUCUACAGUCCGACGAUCAGUCCUGUGCUACACAUCGUAUGUACCGAAUCAAAUUUUUAAAUUUUUAAAUUUAAAAAAGUAUUAUGUUACGCCGUUCGGAUCUGCACUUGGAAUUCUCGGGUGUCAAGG,-1.89
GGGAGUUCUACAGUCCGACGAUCUGUGGCCGCAGGACGAGUACAUCGUGGAGUACUCACUAGAGUAUGGCUUCCUUCGCCUGUCGCAGGCCACCCGCCAGCGCCUGAGCAUCCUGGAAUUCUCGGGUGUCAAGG,0.103
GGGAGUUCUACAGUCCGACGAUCUCCCGACAUCUGUGGCCCUGGCACCAAGAAGGUUCAUGUCAUCUUCAACUACAAGGGCAAGAACGUGCUGAUCAACAAGGACAUCCGUUGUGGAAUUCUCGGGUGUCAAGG,0.202
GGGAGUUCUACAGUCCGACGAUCAAGUCCUGUGCUACACAUCGUAUGUACCGAAUCGGUUUUUGGAAAGGUUUUUUUGGAAAGUAUUAUGUUACGCCGUUCGGAUCUGCACUUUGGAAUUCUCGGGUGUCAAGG,-1.56
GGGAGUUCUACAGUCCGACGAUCUGCUGUGCAGCGGCAUCGGCCCACUGUGGUGGAAUGUCUACGGGAAACUGAUGCCUCCCUCAGCCGGUGAGCAGUGAUAGAGGGGACAGGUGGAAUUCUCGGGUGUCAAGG,-2.14

# Sample 3
# Target: Histone acetyltransferase KAT6A, winged helix 2, GST fusion (KAT6A, Homo sapiens, UniProt Q92794, residues 85-181)
# Technique: protein binding microarray
# Molecule type: double-stranded DNA, one strand shown
# Matrix: in vitro
# Tested at: not given
# Notes: 8-mer, flanks averaged, mean of 2 arrays, mostly near background
# Baseline: not given
# Reading: higher = stronger binding
# Residues (chain): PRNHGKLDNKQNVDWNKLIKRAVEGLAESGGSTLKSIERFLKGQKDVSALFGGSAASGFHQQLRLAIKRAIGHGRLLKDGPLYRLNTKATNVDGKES
Oligonucleotide,E-score
GGGCCAAC,0.0669
ACGTAAGA,-0.0583
AACACAAT,-0.0272
ACATTCGT,-0.111
ACCCGAGC,0.222
AGTTCCAA,0.115
ATAAGAAT,0.143
ATCCATAA,0.12
CGCTGGAG,0.0759
ATTTCATC,0.127
CATTGGAG,-0.072
CGCAACAG,0.0889
ACTTGGTA,-0.0497
CCTGGAGC,-0.0365
ATTGACTA,-0.0681
GTTCACAA,0.0964
TAGTGATA,-0.145
CATATTGA,0.0835
AATTAAAC,0.0673
CCAGAAAA,0.119
AGCTACAT,0.0644
CCGCTAAC,0.0774
AGTTAGAG,0.00247
CGTTCTAA,0.012
CGCTCCGA,0.224

# Sample 4
# Target: Max dimerization protein 1, bHLH-zipper, MAX partner unstated (MXD1, Homo sapiens, UniProt Q05195, residues 56-136)
# Technique: protein-binding microarray
# Molecule type: double-stranded DNA, one strand shown
# Matrix: in vitro
# Tested at: not given
# Notes: k-mer, scored over probes, only values ≥0.25
# Reading: higher = stronger binding
# Target sequence (chain): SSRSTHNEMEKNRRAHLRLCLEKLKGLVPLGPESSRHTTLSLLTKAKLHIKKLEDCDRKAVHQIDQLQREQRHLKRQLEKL
Oligonucleotide,E-score
CGTGGGGA,0.275
AACACACG,0.317
ACGTGCCA,0.415
CATGGTGG,0.294
CCACGTTA,0.382
CCTCATGA,0.333
CACGCGCC,0.431
AACATGCA,0.276
AAAAACAC,0.29
TCGCCCCA,0.26
ACATGGAT,0.257
ATGCGGGA,0.273
GGGTGGAA,0.253
CCTCCCAC,0.285
CGCATGCC,0.419
ACGCGGTC,0.27

# Sample 5
# Target: Interferon regulatory factor 5, full length, phosphomimetic (IRF5, Homo sapiens, UniProt Q13568-2, residues 1-514, K96S/S451D/S453D/S456D/S462D)
# Technique: protein-binding microarray
# Molecule type: double-stranded DNA, one strand shown
# Matrix: in vitro
# Tested at: 250 nM
# Notes: 60-bp whole probe
# Added: salmon DNA 0.4 mg/ml
# Baseline: random background probes
# Reading: higher = stronger binding
# All sequences stand within: GCCTAGCAC … GTCTTGATTCGCTTGACGCTGCTG
Oligonucleotide,log fluorescence
GTAGGACTGGGTATCGGTTAGTGCTAG,3.69 z-score
TTAGGTATCGGTATCGGTTCGTGCTAG,8.8 z-score
TCAGAAATTCCTCTGAAACTGTGCTAG,0.405 z-score
TCACTCTTCTTTTGCTAACTGTGCTAG,1.45 z-score
TTAGGTCTCGGTATCGATTAGTGCTAG,4.87 z-score
TCATTTTGGTTTTCTCTAACTGTGCTA,2.48 z-score
GACGATTTGAGACTGGAGACGTGCTAG,-0.178 z-score
TTTTTTTTGCAAGCTAAAAAAGTGCTA,1.11 z-score
GACGGCCTGGGGTATCGGGACGTGCTA,-0.295 z-score
TCACTTTCCAATTGTCCTACTGTGCTA,1.55 z-score
GGAGGTCTGGATGTGCCGCGGTGCTAG,-0.755 z-score
TTAGGTATCGGTTTTCGGTTAGTGCTA,9.1 z-score
AAGGAAATCGGTGATCAGTCTGTGCTA,0.134 z-score
AACCTTATTAAGATTGTGCAAGTGCTA,0.16 z-score
TTAGGTTTCAGGTATCGGTTAGTGCTA,6.38 z-score
TTAGGACTGGGTTACGGTTAGTGCTAG,-0.105 z-score
TTTGGTGTCTTTTGTGGAAACGTGCTA,0.529 z-score
GACGGTATCCTTTTCCTGCCGTGCTAG,0.339 z-score
GACAGTCTCCTTATCCTGACGTGCTAG,-0.0213 z-score

# Repeated from above (sample 1):
Oligonucleotide,E-score
ACGGTTGA,0.00189
GACTCGAA,-0.156
GCAGTGCA,-0.0645
ATACCGGA,0.0479
CAGACTTA,0.00855
ATGGAATG,-0.112
CGTTTTGC,-0.0674
AACTTTAA,0.243
AACCAGCG,-0.172
CACCTACC,-0.0841
CAAATCCG,-0.0214
ATGAGGGG,-0.00229
CATCTACC,-0.0213
TAACGCCA,0.0876
GTTAAGAA,0.0162
